Measurements collected from several papers.
Several values in a cell are separate wells, animals, samples, runs or records. ± marks the error that the study gave.
U2AF2: U2AF2 148-342 (Homo sapiens, UniProt P26368)
UniProt P26368, sequence (whole entry, looked up): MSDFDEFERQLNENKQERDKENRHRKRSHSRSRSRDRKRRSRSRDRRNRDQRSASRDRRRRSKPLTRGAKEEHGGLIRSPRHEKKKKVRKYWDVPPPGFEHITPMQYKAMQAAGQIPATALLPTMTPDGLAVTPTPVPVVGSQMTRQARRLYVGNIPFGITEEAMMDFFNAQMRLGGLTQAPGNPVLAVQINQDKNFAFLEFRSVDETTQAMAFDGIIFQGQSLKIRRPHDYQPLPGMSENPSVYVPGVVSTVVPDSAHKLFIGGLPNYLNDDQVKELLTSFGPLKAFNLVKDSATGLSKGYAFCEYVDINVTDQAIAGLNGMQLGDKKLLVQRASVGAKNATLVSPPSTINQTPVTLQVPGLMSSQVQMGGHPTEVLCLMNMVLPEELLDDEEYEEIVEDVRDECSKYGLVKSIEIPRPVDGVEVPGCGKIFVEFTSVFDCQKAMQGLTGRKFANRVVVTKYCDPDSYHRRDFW
B1: human EEF1D; sequence looked up; chain ATNFLAHEKIWFDKFKYDDAERRFYEQMNGPVAGASRQENGASVILRDIARARENIQKSLAGSSGPGASSGTSGDHGELVVRIASLEVENQSLRGVVQELQQAISKLEARLNVLEKSSPGHRATAPQTQHVSPMRQVEPPAKKPATPAEDDEDDDIDLFGSDNEEEDKEAAQLREERLRQYAEKKAKKPALVAKSSILLDVKPWDDETDMAQLEACVRSIQLDGLVWGASKLVPVGYGIRKLQIQCVVEDDKVGTDLLEEEITKFEEHVQSVDIAAFNKI
B2: human ROCK2; sequence looked up; chain MSRPPPTGKMPGAPETAPGDGAGASRQRKLEALIRDPRSPINVESLLDGLNSLVLDLDFPALRKNKNIDNFLNRYEKIVKKIRGLQMKAEDYDVVKVIGRGAFGEVQLVRHKASQKVYAMKLLSKFEMIKRSDSAFFWEERDIMAFANSPWVVQLFYAFQDDRYLYMVMEYMPGGDLVNLMSNYDVPEKWAKFYTAEVVLALDAIHSMGLIHRDVKPDNMLLDKHGHLKLADFGTCMKMDETGMVHCDTAVGTPDYISPEVLKSQGGDGFYGRECDWWSVGVFLYEMLVGDTPFYADSLVGTYSKIMDHKNSLCFPEDAEISKHAKNLICAFLTDREVRLGRNGVEEIRQHPFFKNDQWHWDNIRETAAPVVPELSSDIDSSNFDDIEDDKGDVETFPIPKAFVGNQLPFIGFTYYRENLLLSDSPSCRETDSIQSRKNEESQEIQKKLYTLEEHLSNEMQAKEELEQKCKSVNTRLEKTAKELEEEITLRKSVESALRQLEREKALLQHKNAEYQRKADHEADKKRNLENDVNSLKDQLEDLKKRNQNSQISTEKVNQLQRQLDETNALLRTESDTAARLRKTQAESSKQIQQLESNNRDLQDKNCLLETAKLKLEKEFINLQSALESERRDRTHGSEIINDLQGRICGLEEDLKNGKILLAKVELEKRQLQERFTDLEKEKSNMEIDMTYQLKVIQQSLEQEEAEHKATKARLADKNKIYESIEEAKSEAMKEMEKKLLEERTLKQKVENLLLEAEKRCSLLDCDLKQSQQKINELLKQKDVLNEDVRNLTLKIEQETQKRCLTQNDLKMQTQQVNTLKMSEKQLKQENNHLMEMKMNLEKQNAELRKERQDADGQMKELQDQLEAEQYFSTLYKTQVRELKEECEEKTKLGKELQQKKQELQDERDSLAAQLEITLTKADSEQLARSIAEEQYSDLEKEKIMKELEIKEMMARHKQELTEKDATIASLEETNRTLTSDVANLANEKEELNNKLKDVQEQLSRLKDEEISAAAIKAQFEKQLLTERTLKTQAVNKLAEIMNRKEPVKRGNDTDVRRKEKENRKLHMELKSEREKLTQQMIKYQKELNEMQAQIAEESQIRIELQMTLDSKDSDIEQLRSQLQALHIGLDSSSIGSGPGDAEADDGFPESRLEGWLSLPVRNNTKKFGWVKKYVIVSSKKILFYDSEQDKEQSNPYMVLDIDKLFHVRPVTQTDVYRADAKEIPRIFQILYANEGESKKEQEFPVEPVGEKSNYICHKGHEFIPTLYHFPTNCEACMKPLWHMFKPPPALECRRCHIKCHKDHMDKKEEIIAPCKVYYDISTAKNLLLLANSTEEQQKWVSRLVKKIPKKPPAPDPFARSSPRTSMKIQQNQSIRRPSRQLAPNKPS
B3: human anillin; sequence looked up; chain MDPFTEKLLERTRARRENLQRKMAERPTAAPRSMTHAKRARQPLSEASNQQPLSGGEEKSCTKPSPSKKRCSDNTEVEVSNLENKQPVESTSAKSCSPSPVSPQVQPQAADTISDSVAVPASLLGMRRGLNSRLEATAASSVKTRMQKLAEQRRRWDNDDMTDDIPESSLFSPMPSEEKAASPPRPLLSNASATPVGRRGRLANLAATICSWEDDVNHSFAKQNSVQEQPGTACLSKFSSASGASARINSSSVKQEATFCSQRDGDASLNKALSSSADDASLVNASISSSVKATSPVKSTTSITDAKSCEGQNPELLPKTPISPLKTGVSKPIVKSTLSQTVPSKGELSREICLQSQSKDKSTTPGGTGIKPFLERFGERCQEHSKESPARSTPHRTPIITPNTKAIQERLFKQDTSSSTTHLAQQLKQERQKELACLRGRFDKGNIWSAEKGGNSKSKQLETKQETHCQSTPLKKHQGVSKTQSLPVTEKVTENQIPAKNSSTEPKGFTECEMTKSSPLKITLFLEEDKSLKVTSDPKVEQKIEVIREIEMSVDDDDINSSKVINDLFSDVLEEGELDMEKSQEEMDQALAESSEEQEDALNISSMSLLAPLAQTVGVVSPESLVSTPRLELKDTSRSDESPKPGKFQRTRVPRAESGDSLGSEDRDLLYSIDAYRSQRFKETERPSIKQVIVRKEDVTSKLDEKNNAFPCQVNIKQKMQELNNEINMQQTVIYQASQALNCCVDEEHGKGSLEEAEAERLLLIATGKRTLLIDELNKLKNEGPQRKNKASPQSEFMPSKGSVTLSEIRLPLKADFVCSTVQKPDAANYYYLIILKAGAENMVATPLASTSNSLNGDALTFTTTFTLQDVSNDFEINIEVYSLVQKKDPSGLDKKKKTSKSKAITPKRLLTSITTKSNIHSSVMASPGGLSAVRTSNFALVGSYTLSLSSVGNTKFVLDKVPFLSSLEGHIYLKIKCQVNSSVEERGFLTIFEDVSGFGAWHRRWCVLSGNCISYWTYPDDEKRKNPIGRINLANCTSRQIEPANREFCARRNTFELITVRPQREDDRETLVSQCRDTLCVTKNWLSADTKEERDLWMQKLNQVLVDIRLWQPDACYKPIGKP
B4: human ILK; sequence looked up; chain MDDIFTQCREGNAVAVRLWLDNTENDLNQGDDHGFSPLHWACREGRSAVVEMLIMRGARINVMNRGDDTPLHLAASHGHRDIVQKLLQYKADINAVNEHGNVPLHYACFWGQDQVAEDLVANGALVSICNKYGEMPVDKAKAPLRELLRERAEKMGQNLNRIPYKDTFWKGTTRTRPRNGTLNKHSGIDFKQLNFLTKLNENHSGELWKGRWQGNDIVVKVLKVRDWSTRKSRDFNEECPRLRIFSHPNVLPVLGACQSPPAPHPTLITHWMPYGSLYNVLHEGTNFVVDQSQAVKFALDMARGMAFLHTLEPLIPRHALNSRSVMIDEDMTARISMADVKFSFQCPGRMYAPAWVAPEALQKKPEDTNRRSADMWSFAVLLWELVTREVPFADLSNMEIGMKVALEGLRPTIPPGISPHVCKLMKICMNEDPAKRPKFDMIVPILEKMQDK
UniProt P29055, sequence (whole entry, looked up): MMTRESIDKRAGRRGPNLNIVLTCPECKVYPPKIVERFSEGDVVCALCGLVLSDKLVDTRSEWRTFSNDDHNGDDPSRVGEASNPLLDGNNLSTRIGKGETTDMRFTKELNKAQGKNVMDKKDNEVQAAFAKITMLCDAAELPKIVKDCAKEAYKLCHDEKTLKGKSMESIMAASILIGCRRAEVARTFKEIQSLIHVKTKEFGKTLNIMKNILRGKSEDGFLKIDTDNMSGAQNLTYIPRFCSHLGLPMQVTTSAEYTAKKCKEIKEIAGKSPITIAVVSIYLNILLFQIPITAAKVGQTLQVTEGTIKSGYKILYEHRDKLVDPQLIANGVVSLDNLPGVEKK

For `PSMD7 (human)`, “log2 fold change” read -0.89 (CYB5R4 knockout human cells; PP4 interaction, 3xFLAG-PP4C IP-MS; concentration not given; relative to: CYB5R4 KO over parental).
For `GSGAGHETIV`, the binding intensity was 0.369 (construct, MBP fusion, human SCRIB, PDZ 3-4; automated holdup; peptide, purified PDZ protein; concentration not given, unit not given; relative to: biotin control resin, higher = stronger binding).
`milbemycin oxime` has an OD600 of 1.01 and 0.996 and 0.975 (Saccharomyces cerevisiae; cell growth; Pdr5 deleted, Cdr1 overexpressed; 2^-4.966 µg/mL).
For `QADPITTEY`, the GFP-positive cells was 0.542% (Jurkat expressing engineered TCR; NFAT-eGFP reporter, fluorescence microscopy; peptide; concentration not given, HLA-A*01:01 on EL4 cells).
`B1 (human EEF1D)`: “log2 fold change” -2.95 (PP6C (human); co-immunoprecipitation, IP-MS; CYB5R4 knockout cells; concentration not given; relative to: CYB5R4 knockout over parental).
`GSGAGKESYV` gave a binding intensity of 0.235 (construct, MBP fusion, human SCRIB, PDZ 3-4; automated holdup; peptide, crude extract; concentration not given, uncorrected, unit not given; relative to: biotin control resin, higher = stronger binding).
For `MTVCNASQRQAHAQATAVSL`, the selectivity ratio was 0.84 ± 0.39 (HCC78; phage binding; peptide; relative to: targeting over control phage).
`B2 (human ROCK2)`: “log2 fold change” 0.0357 (CYB5R4 knockout human cells; PP4 interaction, 3xFLAG-PP4C IP-MS; concentration not given; relative to: CYB5R4 KO over parental).
`GSGAGKETYY` has a binding intensity of -0.00728 (construct, MBP fusion, human SCRIB, PDZ 3-4; automated holdup; peptide, crude extract; concentration not given, corrected by standard peak, unit not given; relative to: biotin control resin, higher = stronger binding).
`B3 (human anillin)`: “log2 fold change” -0.9 (PP6C (human); co-immunoprecipitation, IP-MS; CYB5R4 knockout cells; concentration not given; relative to: CYB5R4 knockout over parental).
The phosphorylation level of `Peginesatide` is reported as 16.4 fold (UT7/EPO; tyrosine phosphorylation, LC-MS/MS phosphoproteomics, GluC, refers to: EZR tyrosine 499; 10 nM, 15 min, with: 10 U/mL EPO; relative to: vehicle).
`maraviroc` has a protein level of 1.74 fold (Western blot; HIV-infected mice, frontal cortex; i.p., 120 mg/kg twice daily, 3 weeks post infection; relative to: HIV-infected untreated mice, increase).
`GAATTCCTGTAAAGTAATGTGGAGCTCCGTTCGTCTCAAGTCAATCGGTCC (dsDNA; 5'-amino-C6 primer)` has a Kd of 0.00403 ± 0.00104 µM (SUA7 full length assumed (Saccharomyces cerevisiae, UniProt P29055); array; double-stranded DNA, one strand shown; TFIIB alone).
The Kd of `CUUUGGUGU (ssRNA)` is reported as 8.55 µM (U2AF2; sequencing of bound RNA; RNA; motif only).
For `NPDALPETLV`, the binding intensity was 0.241 (construct, MBP fusion, human SCRIB, PDZ 3-4; automated holdup; peptide, crude extract; concentration not given, corrected by standard peak, unit not given; relative to: biotin control resin, higher = stronger binding).
The MIC of `colistin` is reported as 8 µg/mL (Escherichia coli; broth microdilution; clinical isolate RKI-No_314/16).
`AUAAUAUUG (ssRNA)` gave a Kd of 5.07 µM (U2AF2; sequencing of bound RNA; RNA; motif only).
With `GSGAGKETSF` the binding intensity was 0.638 (construct, MBP fusion, human SCRIB, PDZ 3-4; automated holdup; peptide, crude extract; concentration not given, corrected by standard peak, unit not given; relative to: biotin control resin, higher = stronger binding).
For `B4 (human ILK)`, “log2 fold change” read -0.49 (CYB5R4 knockout human cells; PP4 interaction, 3xFLAG-PP4C IP-MS; concentration not given; relative to: CYB5R4 KO over parental).
The alanine aminotransferase of `caspofungin` is reported as 25.3 U/L (adult ICU patients, mITT, serum; dose not given, day 4).
